Experimental data from different studies.
A part holds a random share of what one study measured. Changes are numbered by the printed parent chain.
Sequence of UniProt O15294 (whole entry, looked up): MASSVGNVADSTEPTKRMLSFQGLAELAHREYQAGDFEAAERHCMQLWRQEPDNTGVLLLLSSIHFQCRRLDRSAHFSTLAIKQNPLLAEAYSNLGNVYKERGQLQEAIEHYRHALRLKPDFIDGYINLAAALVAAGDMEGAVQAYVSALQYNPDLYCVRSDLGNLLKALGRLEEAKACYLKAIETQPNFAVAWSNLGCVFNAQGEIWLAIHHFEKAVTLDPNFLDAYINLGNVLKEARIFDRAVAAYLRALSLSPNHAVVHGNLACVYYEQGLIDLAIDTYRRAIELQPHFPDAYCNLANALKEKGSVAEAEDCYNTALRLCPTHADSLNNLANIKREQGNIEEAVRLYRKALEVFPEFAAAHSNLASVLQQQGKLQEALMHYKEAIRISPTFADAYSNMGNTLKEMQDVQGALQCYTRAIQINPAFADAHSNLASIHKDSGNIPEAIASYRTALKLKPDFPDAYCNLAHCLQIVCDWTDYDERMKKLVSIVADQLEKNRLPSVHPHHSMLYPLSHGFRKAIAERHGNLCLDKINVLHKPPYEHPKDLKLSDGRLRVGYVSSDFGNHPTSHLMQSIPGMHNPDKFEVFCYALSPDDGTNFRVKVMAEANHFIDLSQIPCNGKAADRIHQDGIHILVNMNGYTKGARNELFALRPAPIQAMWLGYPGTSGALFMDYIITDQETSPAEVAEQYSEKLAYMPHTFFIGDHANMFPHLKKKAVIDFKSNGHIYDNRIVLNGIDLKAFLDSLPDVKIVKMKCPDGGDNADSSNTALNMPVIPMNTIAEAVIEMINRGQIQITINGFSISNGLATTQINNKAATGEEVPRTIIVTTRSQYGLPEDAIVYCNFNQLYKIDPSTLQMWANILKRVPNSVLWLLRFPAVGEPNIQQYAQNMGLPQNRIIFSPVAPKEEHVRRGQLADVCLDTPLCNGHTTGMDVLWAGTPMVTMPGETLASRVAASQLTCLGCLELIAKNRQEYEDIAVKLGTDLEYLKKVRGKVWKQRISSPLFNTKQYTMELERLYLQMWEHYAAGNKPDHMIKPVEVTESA

Set 1
Target: POU domain, class 5, transcription factor 1, POU domain (Pou5f1, Mus musculus, UniProt P20263, residues 131-289)
Sequence of UniProt P20263 (131-289, looked up): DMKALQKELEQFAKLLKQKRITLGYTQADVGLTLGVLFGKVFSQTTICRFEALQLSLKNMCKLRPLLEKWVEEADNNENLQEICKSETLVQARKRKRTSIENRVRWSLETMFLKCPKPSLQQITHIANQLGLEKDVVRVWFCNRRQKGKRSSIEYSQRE
Technique: Spec-seq
Form: double-stranded DNA, one strand shown
Sample: in vitro
Tested at: not given
Notes: whole probe, mean of replicates
Baseline: not given
Direction: lower = stronger binding
Constant ends, left off below: GAGTCGTCTCGTCAGCAC … CCGTAGAGCACTCAGGTC
| Strand | relative binding energy [ln ratio] |
| --- | --- |
| TCAGTAAT | 0.652 |
| ATGCCTTA | 0.339 |
| ATGCGGTT | 0.507 |
| ATGCAACC | 0.0282 |
| ATGCTGTT | 0.663 |
| ATGCGGTG | 0.755 |
| GGATTAAT | 0.241 |
| CAGCTAAT | 0.84 |

Set 2
Target: Sal-like protein 4, full length isoform A (SALL4, Homo sapiens, UniProt Q9UJQ4, residues 1-1053)
Sequence of UniProt Q9UJQ4 (whole entry, looked up): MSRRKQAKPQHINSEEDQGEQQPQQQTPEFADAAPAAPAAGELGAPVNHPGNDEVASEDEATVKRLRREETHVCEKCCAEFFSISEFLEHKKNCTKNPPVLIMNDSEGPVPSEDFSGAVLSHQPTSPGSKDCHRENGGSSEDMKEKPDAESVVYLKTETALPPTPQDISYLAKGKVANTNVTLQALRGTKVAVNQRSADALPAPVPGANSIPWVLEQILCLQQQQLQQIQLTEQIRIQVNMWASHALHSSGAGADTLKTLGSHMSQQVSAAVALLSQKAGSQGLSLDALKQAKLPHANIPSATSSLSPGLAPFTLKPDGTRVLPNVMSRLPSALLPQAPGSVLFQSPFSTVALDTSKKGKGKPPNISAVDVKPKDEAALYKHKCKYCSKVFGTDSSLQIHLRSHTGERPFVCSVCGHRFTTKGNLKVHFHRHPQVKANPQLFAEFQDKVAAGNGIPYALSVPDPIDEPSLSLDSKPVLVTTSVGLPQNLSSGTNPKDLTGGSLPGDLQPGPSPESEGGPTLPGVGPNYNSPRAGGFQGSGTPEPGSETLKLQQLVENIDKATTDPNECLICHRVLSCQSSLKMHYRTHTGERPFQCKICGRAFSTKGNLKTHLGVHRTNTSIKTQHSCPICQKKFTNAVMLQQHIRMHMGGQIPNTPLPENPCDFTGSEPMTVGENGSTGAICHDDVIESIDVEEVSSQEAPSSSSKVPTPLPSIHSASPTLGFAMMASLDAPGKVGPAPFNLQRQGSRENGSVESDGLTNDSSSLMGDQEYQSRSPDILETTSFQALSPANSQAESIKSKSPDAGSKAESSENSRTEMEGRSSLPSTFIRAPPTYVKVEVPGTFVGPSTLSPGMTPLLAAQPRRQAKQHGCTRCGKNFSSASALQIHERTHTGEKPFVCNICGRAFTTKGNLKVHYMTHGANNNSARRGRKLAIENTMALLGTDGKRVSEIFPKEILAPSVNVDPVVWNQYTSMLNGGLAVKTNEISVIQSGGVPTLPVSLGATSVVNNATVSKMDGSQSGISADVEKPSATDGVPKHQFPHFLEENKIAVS
Technique: universal PBM
Form: double-stranded DNA, one strand shown
Sample: in vitro
Tested at: 600 nM
Notes: 8-mer, flanks averaged, mean of replicates
Direction: higher = stronger binding
| Strand | E-score |
| --- | --- |
| GAAGTGTC | -0.0539 |
| AAGCATAG | 0.0292 |
| GCCCTAAC | -0.047 |
| CACCACTG | -0.108 |
| AGCACTCA | -0.15 |
| AATGTTGT | 0.235 |
| ACCTAAAT | 0.155 |
| CTAACACC | -0.0928 |

Mixed results
P1: PafA, mature enzyme, eGFP fusion (Elizabethkingia meningoseptica, UniProt Q9KJX5); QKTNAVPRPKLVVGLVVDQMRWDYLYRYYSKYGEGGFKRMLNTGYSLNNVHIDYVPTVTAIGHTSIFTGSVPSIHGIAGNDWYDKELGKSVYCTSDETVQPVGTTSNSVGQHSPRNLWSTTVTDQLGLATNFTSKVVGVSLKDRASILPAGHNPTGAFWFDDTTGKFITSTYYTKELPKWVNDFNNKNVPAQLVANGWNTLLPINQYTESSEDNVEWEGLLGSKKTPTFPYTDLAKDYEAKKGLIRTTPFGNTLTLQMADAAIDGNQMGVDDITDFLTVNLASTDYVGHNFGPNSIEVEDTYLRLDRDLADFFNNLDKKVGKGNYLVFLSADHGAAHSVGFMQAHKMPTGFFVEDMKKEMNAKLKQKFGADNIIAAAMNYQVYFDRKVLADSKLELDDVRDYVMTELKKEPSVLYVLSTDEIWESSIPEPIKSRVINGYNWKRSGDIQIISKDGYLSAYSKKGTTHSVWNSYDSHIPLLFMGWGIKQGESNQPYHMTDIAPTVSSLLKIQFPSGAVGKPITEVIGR
| Molecule | target or system | assay | test system | conditions | how to read | measurement | result |
| --- | --- | --- | --- | --- | --- | --- | --- |
| CCT2 (Homo sapiens, UniProt P78371) | CCT7 (Homo sapiens, UniProt Q99832) | cross-linking MS | cell fractions | with: DSSO |  | cross-linked residues | K527 to K55 |
| P1 G454V | inorganic phosphate, free oxyanion | microfluidic competitive inhibition | in vitro, cell-free expressed | not given, derived from inhibition constants, unchanged parent 615000 nM | lower = stronger binding | phosphate dissociation constant | 426 µM |
| SEPTIN7 (Homo sapiens, UniProt Q16181) | SEPTIN9 (Homo sapiens, UniProt Q9UHD8) | cross-linking MS |  | hits only |  | interaction screen | cross-linked |
| GMYHHHERTWNQYQH | OGT (Homo sapiens, UniProt O15294) | phage display binding, phage display panning NGS | peptide |  | baseline: OGT-panned over input library | log2 fold enrichment | 3.22 |
| NAT10 (Homo sapiens, UniProt Q9H0A0) | AATF (Homo sapiens, UniProt Q9NY61) | cross-linking MS | cell fractions | with: DMTMM |  | cross-linked residues | E883 to K58 |

Excerpt of the above (set 2):
| Strand | E-score |
| --- | --- |
| AAGCATAG | 0.0292 |
| GCCCTAAC | -0.047 |
